# Experimental data collected from several papers.
# Every numbered part comes from another study and shows a few of its results, in no order.

# Series 1
# Target: RING finger protein unkempt homolog, zinc fingers 1-6, GST-SBP tag (UNK, Homo sapiens, UniProt Q9C0B0, residues 30-357)
# Method: RNA Bind-n-Seq
# Form: RNA
# Medium: in vitro
# Tested at: not given
# Setting: RNA with constant flanks, ends assumed
# Baseline: input RNA pool
# Direction: higher = stronger binding
# Construct (chain): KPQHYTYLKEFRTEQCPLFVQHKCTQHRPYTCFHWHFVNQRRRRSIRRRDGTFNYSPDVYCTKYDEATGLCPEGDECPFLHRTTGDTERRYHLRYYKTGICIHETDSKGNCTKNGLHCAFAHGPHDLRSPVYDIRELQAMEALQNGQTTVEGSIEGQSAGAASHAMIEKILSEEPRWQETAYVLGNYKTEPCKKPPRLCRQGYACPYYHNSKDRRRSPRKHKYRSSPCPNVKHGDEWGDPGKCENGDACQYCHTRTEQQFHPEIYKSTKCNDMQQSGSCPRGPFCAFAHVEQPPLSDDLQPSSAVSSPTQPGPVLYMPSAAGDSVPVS
Sequence,bound/input enrichment
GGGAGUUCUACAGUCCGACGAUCUUCCCUCGGUUCCAGUCUUCCCUUUAAAAGCCUGUGGCAUUUUUCCUCCUUCUCCCUAACUUCCGAAAUGUUGUACUUGGCUAUUUUGAUUAGGGAAGAGGGAUGUGGUCUCUGAUCUCUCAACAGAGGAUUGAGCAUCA,0.109 ratio
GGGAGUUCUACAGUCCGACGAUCUUUCAUCUUUUGGAGUUAGAAAAGGUCCACGAACUGUGCGAUAACUUCUGCCACCGAUACAUCCGCUGUUUGAAGGGGAAAAUGCCCAUCGACCUCGUCAUUGAUGAAAGAGACGGCAGCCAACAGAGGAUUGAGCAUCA,0.0718 ratio
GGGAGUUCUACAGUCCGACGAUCACAGAAAAUAGCAGUGCAGUGCUACUCCAGUGGCAUGAAAAGGCCUUAGCUGUAGGAGGACCCGGCUCCAUUAUAAGAGUUCUUACAGCAAGAAAGACUGUUUAAAAAAAAAUCCUGUUACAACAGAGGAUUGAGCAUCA,0.104 ratio
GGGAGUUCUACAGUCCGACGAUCUCUGCAAUAGUUGGGUUUAUCUACGGGUACGUGGCUGAACAGUUUGGGUGGACUGUCUACACCGUUAUGGCCGGAUUUGCUUUCUCCUGUUUGCUGACACUUCCUCCAUGGCCUAUCUACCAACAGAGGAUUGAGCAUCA,0.199 ratio
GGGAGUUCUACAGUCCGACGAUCUGCGCCUUUUCUUCCUCUCUUUUUUUUCCCCCUUUCUUUCCCACCCCACCCCCUCCCAAUAACCGAUUUACUUUACAAUCAUCCACACUGUGGUCUGUGGAUCUUUAAUAUAUAUAUAUACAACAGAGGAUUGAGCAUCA,1.32 ratio
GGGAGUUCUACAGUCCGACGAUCGACAGAGAGGCACCUGGGUCAGUAUUAGUCUAUUUAUCAGAGGUGUAAAUAAUCUAUGUACCGUUUUUCUCCUUUUAGAUUAUUUUGUAUUUGUUUAAAAGAAGUUUUGUCAAAAUACAACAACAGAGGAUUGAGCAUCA,6.27 ratio
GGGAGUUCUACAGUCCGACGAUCGACAGGACUGCUUUGGAUACUAUCAAGGAACAAACACAAAGUGGUGGUGACCUUCGGAGCCGCUCACAGCCCACAGCCGCCAGCGCUCCUCAGAGCUUGAGCAGUCAACGGCGGCUGGUCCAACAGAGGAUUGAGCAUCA,0.112 ratio
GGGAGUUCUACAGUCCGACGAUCUGAAUACACAGUACAUCAUACAUCCUUUACAAGCAAGUUCAAUGGAGAUUACGUUGAAAUCACCGAAGAUGCAAAUGACCUUUCAAAGUCAACACAAUGUGUUCUGAAACCUCGUGACUACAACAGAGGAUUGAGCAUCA,0.159 ratio
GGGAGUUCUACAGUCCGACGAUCCUGAUUGUGGACAACAGCAUGGCUCCAGCCUCCGAUCUUGCACUGCCCUUGGAAACAAAAGCCGCAACAGUUCCAAUUAAAGACAAAGGAACUGUACAGACUGAAGAAAAACCACGUGAACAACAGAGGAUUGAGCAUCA,0.0972 ratio
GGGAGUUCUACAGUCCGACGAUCAUACAUUCUAAGGGAGCACAUGGUGAAGGUAAUUCAGUGUCAUUGGAUUUUCAGAAUUCCUCCGUGUCCAAACCAGACCCACCUCCAUCUCAGAAUAAGCCAGCAACUUUCAGACCACCACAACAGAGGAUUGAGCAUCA,0.27 ratio
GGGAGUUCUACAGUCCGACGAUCGAAUUCCUAACUUGGUGUCAGUUUCUAAGGCCUUUAGUGUCUUGGAUAUUCUACUGUGUGUUCCGAACUGUUAAGUGUCACCUUAUUCUGGGAUUAUUGUCCUAGAAAUAUUCUGUUCUUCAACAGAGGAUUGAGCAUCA,0.0953 ratio

# Series 2
# Target: RNA binding protein fox-1 homolog 2, RRM domain, GST-SBP tag (RBFOX2, Homo sapiens, UniProt O43251-10, residues 100-194)
# Method: RNA Bind-n-Seq
# Form: RNA
# Medium: in vitro
# Tested at: 365 nM
# Setting: natural RNA segment, single round, ends assumed
# Baseline: no-protein control
# Direction: higher = stronger binding
# Construct (chain): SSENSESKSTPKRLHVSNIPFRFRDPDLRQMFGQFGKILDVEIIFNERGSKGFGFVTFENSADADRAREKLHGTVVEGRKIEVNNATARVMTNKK
Sequence,RBNS enrichment (R)
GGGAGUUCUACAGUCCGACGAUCGACUGGAUAGACAUCUUGACUCUAUUCAGCCCGUAGUCUGUGAUCUGGAGAGUCCAGUUAAGGUAACCCAGAUUUUUGACAACCGCCUUCCUGCUGAGCCAAAGUUUUCUUGGAAUUCUCGGGUGCCAA,0.215
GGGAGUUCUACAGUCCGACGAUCAUGAGAGUCAAACACCCUGCCUACAAGGAGAUGUUUUGAAAUGGAGAGGAAAAUUGGCACCUCAUCUUUUAAAGGCAGUAAUGGAAUUGAUUUUCAGUAACUGAAUUUGUUGGAAUUCUCGGGUGCCAA,1.25
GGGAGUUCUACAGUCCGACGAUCCUUUGAUCUUUUUGUCCAAGAAAAGGAAUGUCUGACAGGCUUAAGCUUUCGUCCCCUUGCACUUAGACUCGAAGUUAGUAAAUCCUUAAAGGCUUUUUAAUAGCAGACUUUGGAAUUCUCGGGUGCCAA,0.406
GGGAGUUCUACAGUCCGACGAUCUGUGUUUAGCAUAGGUGCUGUAGUUGGAGUGGGCCCCACCUCUGCUCCUUUCAGUGUUCUUGCUGUUCAAGUUAUUCCUCUCAGACAUCCUCCAUUGUCCCACGCACUCCUGGAAUUCUCGGGUGCCAA,1.14
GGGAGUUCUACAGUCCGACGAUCGACUUGGUGAUUACCUGAAAGCCCUUCUCAAGACCGAGUGUACACCACUUUCCCACACUGUGAACUAAUGACAAGUGACUUAUUUGCUCAUAAGUAAAUGUCUUCAUGUUUGGAAUUCUCGGGUGCCAA,0.262
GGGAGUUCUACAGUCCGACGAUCCCACUGUGGUCAAAGCACGAAUUGGAAGUUCUCAGAGACAACACCAGUCAGCAGCCAAAGACCUAACUCAGUCACCUGAAAUGUCACCAACAACAAUCCAGGUCACAUACUGGAAUUCUCGGGUGCCAA,0.326
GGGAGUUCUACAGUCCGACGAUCAACAUUUUUGUUCUUAUGGGGUGAGAAUAUAGACAGUGCCCUUGGUGCGAGGGAAGCAAUUGAAAAGGAACUUGCCCUGAGCACUCCUGGUGCAGGUCUCCACCUGCACAUGGAAUUCUCGGGUGCCAA,0.522
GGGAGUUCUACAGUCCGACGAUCACCAGGGCAAGUGCAUCUUUGCCUCAACUCCAGGAUUUAGGCCUUAACACACUGGCCAUUCUUAUGUUCCAGAUGGCCCCCAGCUGGUGUCCUGCCCGCCUUUCAUCUGGUGGAAUUCUCGGGUGCCAA,1.48
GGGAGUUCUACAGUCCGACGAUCGAUGAGCAAGAUUAUGGUUAGUGGGGGCUCUGUGGAGCAUGCACGUAGUGCCCUUCCUUCAUCAGGCCAAAGCACCAAGUUGCUUCACUGCCUCGGCCUUUUGUCCAGCUUGGAAUUCUCGGGUGCCAA,7.97

# Series 3
# Target: Fragile X messenger ribonucleoprotein 1, C-terminal low-complexity region (Fmr1, Mus musculus, UniProt P35922)
# Method: RNA Bind-n-Seq
# Form: RNA
# Medium: in vitro
# Tested at: 200 nM
# Setting: whole 134-nt RNA, ends assumed
# With: 150 mM LiCl
# Baseline: input library
# Direction: higher = stronger binding
# Each molecule: 7-deaza-guanosine replaces G
Sequence,log2 enrichment
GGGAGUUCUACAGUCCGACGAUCCCUGUGCUACACAUCGUAUGUACCGAAUCGGUUUUUUUGGUUUUUUUGGGGUUUUUUUGGAAAGUAUUAUGUUACGCCGUUCGGAUCUGCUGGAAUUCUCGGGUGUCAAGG,-0.428
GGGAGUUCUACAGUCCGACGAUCUGUGCUACACAUCGUAUGUACCGAAUCGGGGAAAAAGGGGUUUUUUUGGGGAAAAAAAGGGGAAAGUAUUAUGUUACGCCGUUCGGAUCUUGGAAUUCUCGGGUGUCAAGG,-0.326
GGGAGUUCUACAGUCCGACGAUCAGUCCUGUGCUACACAUCGUAUGUACCGAAUCGGAAAAAAAGGUUUUUGGUUUUUGGAAAGUAUUAUGUUACGCCGUUCGGAUCUGCACUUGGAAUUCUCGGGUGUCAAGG,-3.19
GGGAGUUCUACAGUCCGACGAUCAGUCCUGUGCUACACAUCGUAUGUACCGAAUCGGAAAAAGGGAAAAAGGAAAAAGGGGAAAGUAUUAUGUUACGCCGUUCGGAUCUGCACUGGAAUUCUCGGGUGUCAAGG,-0.786
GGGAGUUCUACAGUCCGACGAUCAAGUCCUGUGCUACACAUCGUAUGUACCGAAUCAAAUUUUUAAAUUUAAACCCAAAAAAGUAUUAUGUUACGCCGUUCGGAUCUGCACUUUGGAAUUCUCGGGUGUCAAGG,-0.314
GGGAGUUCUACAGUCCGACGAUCCAAGUCCUGUGCUACACAUCGUAUGUACCGAAUCGGGGUUGGGGUUGGGGUUGGGGAAAGUAUUAUGUUACGCCGUUCGGAUCUGCACUUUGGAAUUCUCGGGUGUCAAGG,-0.855
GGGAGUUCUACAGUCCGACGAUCCUGUGCUACACAUCGUAUGUACCGAAUCGGGGAAAAAAAGGAAAAAAAGGAAAAAAAGGGGAAAGUAUUAUGUUACGCCGUUCGGAUCUGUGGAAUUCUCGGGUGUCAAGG,0.13
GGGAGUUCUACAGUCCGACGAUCUGGCCCUGGUGGCAUGCGGGGAGGAAGAGGUGGCCUCAUGGAUCGUGCUGGUCCCGGUGGAAUGUUCAGAGGUGGCCGUGGUGGAGACAGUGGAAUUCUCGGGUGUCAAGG,-0.437

# Series 4
# Target: Histone acetyltransferase KAT6A, winged helix 1, GST fusion (KAT6A, Homo sapiens, UniProt Q92794, residues 1-85)
# Method: protein binding microarray
# Form: double-stranded DNA, one strand shown
# Medium: in vitro
# Tested at: not given
# Setting: 8-mer, flanks averaged, mean of 2 arrays, mostly near background
# Baseline: not given
# Direction: higher = stronger binding
# Target sequence (chain): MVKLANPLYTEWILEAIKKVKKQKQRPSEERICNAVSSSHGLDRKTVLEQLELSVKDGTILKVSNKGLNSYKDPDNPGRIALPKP
Sequence,E-score
ATTTACCA,-0.186
GACGTGCC,0.0824
TACAGATA,-0.104
ACCGCTTC,0.202
CCGGTTAC,0.303
GCAGTCTA,-0.0541
AATGGGAG,-0.209
CGGACTCA,0.152
ATGTCCAC,-0.12
TCGGATCA,0.00942
GAATATTA,-0.00392
CTGTTGGA,-0.196
ATAGTAAC,-0.0323
AAAGCTGC,-0.017
TAGCTGAA,-0.159
GGGCGCTA,0.201
CGCCATTC,-0.121
ATGACCAA,-0.0925
AAGGATAT,-0.136
ACTAGTGG,-0.285
TACAGGTA,-0.0772
AGAACAGG,-0.216
GTTGCTGA,-0.091
CGACGCAG,0.302
ACCCACTG,-0.0307

# Excerpt of the above (series 4):
Sequence,E-score
ACTAGTGG,-0.285
TACAGGTA,-0.0772
AGAACAGG,-0.216
GTTGCTGA,-0.091
CGACGCAG,0.302
